Assay results of several laboratories.
A part holds a random share of what one study measured.

Study 1 — method: RNA Bind-n-Seq; molecule type: RNA; medium: in vitro; tested at: 365 nM; relative to: no-protein control; reading: higher = stronger binding
Target: RNA binding protein fox-1 homolog 2, RRM domain, GST-SBP tag (RBFOX2, Homo sapiens, UniProt O43251-10, residues 100-194)
Notes: natural RNA segment, single round, ends assumed
Shared flanks, not repeated: GGGAGUUCUACAGUCCGACGAUC … UGGAAUUCUCGGGUGCCAA
Construct (chain): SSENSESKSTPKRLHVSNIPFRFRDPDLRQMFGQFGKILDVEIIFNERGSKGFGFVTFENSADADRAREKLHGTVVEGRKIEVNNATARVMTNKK
Oligonucleotide | RBNS enrichment (R)
CCUCUUACCUUGCCCUGUUCCCGGUGCCUUCUUGCGAAUGAGCUAGAGUAGUUUAGGGUCCCUGACUCGAACCCUCACUGUGCCUUCUGCCGGGGAGGAGGGGCUCCUGG | 0.473
AUGGACGCCUGGGUCUGACCUGACACUGUGCUGGGAGAAUCAGGAUGUGUGUCUAAUGGCGAGCUGACAGCCCUCUGCUGAUAUUUGGCAGAAGGCACCAGACCAGCCCA | 0.215
GGAGAAGCAGUGCCUGCCAGCUGUGGUGGACCUUCCUAAGAAAUAAAUAUCCUUUAUGUUUUCAAACAUCCUGUCUGAGGUCUGCUGAUUACACUGUCUCUGAAAAAUCA | 1.49
CUCUUGUCUCCCACCCUGAGAUUGGGCAUGGGGUGCGGUGUGGGGGGCAUGUGCUGCCUGUUGUUAUGGGUUUUUUUUGCGGGGGGGGUUGCUUUUUUCUGGGGUCUUUG | 9.3
CUUUCUGUGUUGUGUUCUGCCCUGUGCUCUUCUCUCUACGUUAACGUUUCCUGUAGUAUGUUUCUUCAUCUCAUCGCCAAGGUAGGCUUGUGUUUUUCAGUGUGUGCCUC | 0.634
GAGGCAAGAGAUAAGGGCAGGAUAUAGCACAUGAUGGCUUCCAGCAGAACUGAGUCUAUAGCCCAGGUCUGCUGGCUUCCAGCACAUGUUGUACACUAAGAUUUCAUGCA | 0.763
UUUAAAAGAAAAGAAGAAAAAAAACACCCAACCACACAAAGAACAAAACCAGUAACAAACACAAAGGAAUUCAGGGUCGCUUUGCUUGCUCUCUGUGCUCCGUGGAGGCC | 0.409
UGGCAGAUGUCAGGGAGGAAUAGGGUAGCUGCUUUUCAUUCCUCCUGCUUGACAAUAAUUCCCUUCCCCCAAAAUGAGCAGUGUAGGCAAGAAAAUUCUAGCCAUGACCA | 0.793
UGGUGCCGUUUGCUGGCUUCUCCACUAGGGUUUCAGGACAGACUACCUAGGAACUGCCUCAACCUCCCACCAGUUCUUCCCUGCCCCUCCCUUCUGUCUAGAUUCACUUC | 0.549
AAUGUUGGAGGAGAGAUAAGUUAUAGGGAGCUGGAUUUCAAAACGUGGUCCAAGAUUCAAAAAUCCUAUUGAUAGUGGCCAUUUUAAUCAUUGCCAUCGUGUGCUUGUUU | 0.475
GGAGGGUGCUUAGCUCCAGAGCAGGAUGGGACUUCCCCAGGCAGGAAGCACUUGAUGGAGAGCUGCCCAGCUCUCCUACAAGGUUAGUGCCCUCCACCUAGGGAAGCAUG | 0.606
GUUGCAGGGUAACCAUGGUGGGAGGCCAGGAGUUAUCUUAUCUCAUCCUGGACCAAACAGAUAGGCCAGAACCAGCCUGCAUCCUGGGGCUGCUAUGUGGUUCAGUUAAU | 2.16

Study 2 — method: RNA Bind-n-Seq; molecule type: RNA; medium: in vitro; tested at: not given; relative to: input RNA pool; reading: higher = stronger binding
Target: RING finger protein unkempt homolog, zinc fingers 1-6, GST-SBP tag (UNK, Homo sapiens, UniProt Q9C0B0, residues 30-357)
Notes: RNA with constant flanks, human-mouse chimeric sites, ends assumed
Shared flanks, not repeated: GGGAGUUCUACAGUCCGACGAUC … CAACAGAGGAUUGAGCAUCA
Construct (chain): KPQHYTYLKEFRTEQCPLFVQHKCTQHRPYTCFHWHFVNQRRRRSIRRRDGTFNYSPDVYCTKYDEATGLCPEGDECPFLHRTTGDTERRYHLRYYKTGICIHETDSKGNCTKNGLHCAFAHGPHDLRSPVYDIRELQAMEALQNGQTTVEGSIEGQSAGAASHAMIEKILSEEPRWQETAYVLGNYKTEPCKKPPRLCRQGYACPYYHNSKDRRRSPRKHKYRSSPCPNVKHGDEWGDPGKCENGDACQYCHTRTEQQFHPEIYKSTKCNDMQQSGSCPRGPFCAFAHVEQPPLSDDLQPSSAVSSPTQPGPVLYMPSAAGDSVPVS
Oligonucleotide | bound/input enrichment [ratio]
UAACCACAUCAAGAUGGUUGGAAAGCUGAAGCAGAACUUACUCUUGGCAUGUCUGGUGAUUAGUUCUGUGACCGUGUUUUACCUGGGCCAGCAUGCCAUGGAGUGCCAUCACCGAAUAGA | 0.251
GCAGGAUCUUCUAAGUACCAGUGGGGCAUUAUGAAAUCCCUUGGGCUCUCUGAUGACGACAUAGUGAAGUUUUCUGAAGCAGAGCACUGGCUUGAUUAUUUCCCACCACUGGCCGUUCAG | 0.0985
CUUAAUGUUAAUAUUUUUGAAUAAAUGAAGCUAAAAUGUCUGCUUUUGGUACUACAUGCAUUAAUAAAAGGUUAAGUAAGUUUUGUUACUGAAGUACUAUUUAACAUCUCAGAAAAAAAC | 0.304
GAUCAUGAACCACCAUCAGAAAUGAAGAUGAGAUUACCCAAGACGAGCAAAACAGCUGCGCUACAGAAAAGUAAACUUAACCUUGCAGAGUUCCUUAAUGAAGAUACUAAGUUAGGAAGC | 0.355
AAUAGAGGAUCCACCUCAAUUGAAGUGGGGAGUAAAGGUGUGGCCACCACACCUAACUUGAUGGAUAUAUAUUUUUUUUAAUAUGAAUCUUCCUGUUCGUCCAGGGAAGAAAGAUUUGUU | 1.36
GAGCGUCUUGCCCGCACUGGGAUCAUCGUGACCACUAGUGAGGCUGUCCUCCUACAGCUGGUAGCUGACAAAGACCACCCGAAGUUCAAGGAAAUUCAGAACCUAAUUAAGGCGAGUGCC | 0.164
AAAGUGGACUAUGGCGAGUACAUGGAUAAAAACAAUGUGAGGCGGCAAGCAACAACAAUCAUAGCUGAUAAUAUUAUAUUUCUGAGUGACCAGACAAAAGAGAAGGAAUAGAACGGAUGA | 8.29
UUUGUUUUUGUAACUUAUGUAAAAGGUGUUUCUCCCUUACUGUCAAAAAAUAUGCAUGUAUAGUAAUUAGGACUUCAUUCCUCCAUGUUUUCUUCCCUUAUCUUACUGUCAUUGUCCUUA | 1.01
CUCUUUGAAUCAUUCAAGAGUUUUGAAGGUCUCUUUUAUUUUCUGGGGUCCAUUGUUAACUUUAGCCAGGACCCAGAUGUGCACUUUAAAUAUAUUCAGGCGGCUUGCAAGACUGGGCAA | 0.335
AAAGAAUGGAUAGAGUGUGCACACGGGAUCGGUGGGACCCGGGCGAAAAAGGAGUGCAAGAUAGAGUUCGAUGACUUCGAAGAGUGCUUGCUUCGGUACAAAACGAUGAGACGUGCACAU | 0.363
GAUCAUGAACCACCAUCAGAAAUGAAGGAUGAGACUACCAGACGAGCCAAAACAGCUAGCACUAGAAAAAGUAAACUUAACCUUGCAGAGUUCCUUAAUGAAGAUACAAGUUAAGAGAGC | 3.48

Study 3 — method: protein binding microarray; molecule type: double-stranded DNA, one strand shown; medium: in vitro; tested at: not given; relative to: not given; reading: higher = stronger binding
Target: Histone acetyltransferase KAT6A, both winged helices, GST fusion (KAT6A, Homo sapiens, UniProt Q92794, residues 1-181)
Notes: 8-mer, flanks averaged, mean of 2 arrays, mostly near background
Residues (chain): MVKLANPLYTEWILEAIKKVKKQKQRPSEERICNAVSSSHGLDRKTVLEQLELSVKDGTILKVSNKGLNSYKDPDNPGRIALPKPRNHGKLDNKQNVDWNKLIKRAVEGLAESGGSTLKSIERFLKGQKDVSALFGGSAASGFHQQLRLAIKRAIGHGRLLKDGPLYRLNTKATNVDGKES
Oligonucleotide | E-score
ATCTGCTG | -0.182
ATGGGCCA | -0.256
GATCCCAA | -0.154
CATAGAAA | -0.0557
GCATGAGA | -0.0499
AAATGAAT | -0.176
CAACATAG | -0.0915
ACAGCGGT | 0.199
CCCCAACC | -0.126
GCCAGCGA | 0.0192
AGAGTAAG | -0.152
CACATTTC | -0.0154
CCCATCAC | -0.184
ATCCCTTA | -0.118
GCTCAGCC | 0.00717
GCCACTAA | -0.158
CATAGAGC | -0.0108
AGTCTTTA | -0.255
ATAAGTCC | -0.136

Study 4 — method: protein-binding microarray; molecule type: double-stranded DNA, one strand shown; medium: in vitro; tested at: 940 nM top; notes: 60-bp whole probe; with: salmon DNA 0.4 mg/ml; relative to: random background probes; reading: higher = stronger binding; shared flanks, not repeated: GCCTAGCAC … GTCTTGATTCGCTTGACGCTGCTG
Target: Interferon regulatory factor 5, full length, phosphomimetic (IRF5, Homo sapiens, UniProt Q13568-2, residues 1-514, S451D/S453D/S456D/S462D)
Oligonucleotide | fitted relative affinity
GACGGTATCGGGTTTCGGGACGTGCTA | 5.74 z-score
TCTCTGCTCCTTCTGACATCGTGCTAG | 3.34 z-score
CAGGTTTCTGATGGGCCTAGGTGCTAG | 3.16 z-score
GACGGTAGCCTTTTCCTGACGTGCTAG | -0.297 z-score
CTAGGACTGGGACTGGGTTAGTGCTAG | -0.545 z-score
TTACATTTCGGGTATCGATTAGTGCTA | 3.76 z-score
GACGATTTCAGTGCCGAGACGTGCTAG | -0.137 z-score
GTCACTCTCTGGGCTGTGGGTGTGCTA | 0.551 z-score
TTAGGAGTGCTTTTCCTTTAGTGCTAG | -0.491 z-score
TCAGGTTTCGACTATCGGTTAGTGCTA | 8.23 z-score
TCAGTTTCTGGTTTATTACTGTGCTAG | 5.25 z-score
GACGGACTGGCACTGGGGACGTGCTAG | -0.656 z-score
TTAGTTTTCCTTTCCCTTTAGTGCTAG | 2.56 z-score
GACGGTATCGACAATCGGGACGTGCTA | 3.55 z-score
GTAGGTCTCCTTCTCCTTTAGTGCTAG | 0.332 z-score
TCATCTTTATGCACTCTTACTGTGCTA | 0.94 z-score
GACGGACTGGGGTATCTGGACGTGCTA | 0.103 z-score
TCAATCTTATGATATATAACTGTGCTA | 0.486 z-score
TTAGATATCAGAGTGGATTAGTGCTAG | -0.537 z-score
GACGGTCTCCTTAGCCTGACGTGCTAG | -0.235 z-score

For quick reference, copied from above (study 4):
Oligonucleotide | fitted relative affinity
TCTCTGCTCCTTCTGACATCGTGCTAG | 3.34 z-score
CAGGTTTCTGATGGGCCTAGGTGCTAG | 3.16 z-score
GACGGTAGCCTTTTCCTGACGTGCTAG | -0.297 z-score
CTAGGACTGGGACTGGGTTAGTGCTAG | -0.545 z-score
TTACATTTCGGGTATCGATTAGTGCTA | 3.76 z-score
GACGATTTCAGTGCCGAGACGTGCTAG | -0.137 z-score
GTCACTCTCTGGGCTGTGGGTGTGCTA | 0.551 z-score
TTAGGAGTGCTTTTCCTTTAGTGCTAG | -0.491 z-score
